Results from different studies.
Numbered parts are unrelated; each lists some results of a single study.

Set 1
Target: RNA binding protein fox-1 homolog 2, RRM domain, GST-SBP tag (RBFOX2, Homo sapiens, UniProt O43251-10, residues 100-194)
Method: RNA Bind-n-Seq
Molecule type: RNA
Medium: in vitro
Tested at: 365 nM
Setting: natural RNA segment, single round, ends assumed
Relative to: no-protein control
Reading: higher = stronger binding
Quantity: RBNS enrichment (R)
Target sequence (chain): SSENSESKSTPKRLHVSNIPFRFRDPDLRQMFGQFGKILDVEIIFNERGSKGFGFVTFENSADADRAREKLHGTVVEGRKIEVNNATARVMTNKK
Strand = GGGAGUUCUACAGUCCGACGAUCAUAAUAUGUAUAAUUUGAAUUUUUUGUGACUGAUCCUUGGCAGUAUAAAUGAUAAAAGUAAAUGUAAUGGAAUCUUUUAAUUAGGCUAAGAUAUGCUAUUUCAUAACUUAUGGAAUUCUCGGGUGCCAA; result = 1.12
Strand = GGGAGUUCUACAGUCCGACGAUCACUUGAACUGAGUUGCAUCUCAUUUUCUUCUGUAAAAACAAUUACAGUAGCACAUUAAUUUAAAUCUGUGUUUUUAACUACCGUGGGAGGAACUAUCCCACCAAAGUGAGUGGAAUUCUCGGGUGCCAA; result = 0.6
Strand = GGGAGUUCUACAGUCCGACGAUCCACCUGUCAAUACUUGUUUGUAUUGAUUUCUGAUAUUCUUGCAGCUGACUACGUGUAAUUGGGCAGAUCAGCUUUGCAGUAGAUUAUGCUGCAUCCUCGUGGCAAAAUUCUGGAAUUCUCGGGUGCCAA; result = 0.312
Strand = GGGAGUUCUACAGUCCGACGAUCUGCCAGCAUUUCUGGAUGGAUAUAGGGACUAUCAUUAGUAUCCUAAUACACGGUGAUUUUAAAACAACCAUAAAAUUGAUUCAGAGUCCACUGACCCUUACAGAUGUAGGUGGAAUUCUCGGGUGCCAA; result = 0.281
Strand = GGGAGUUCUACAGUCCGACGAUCAUUAAGAAGUAGAAGGCACUAGCUUCAAAGAGUGAGACAUUCAGGGCCUUUUCAGCAUUGGCCCACUAGCACCAUGCAUUUAUCUGAAUUCACGGGGCCCUCUGGGCACAUGGAAUUCUCGGGUGCCAA; result = 2.07
Strand = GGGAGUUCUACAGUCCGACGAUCACUUUGCAUUUAUAAAUUAUAAAUAUUGUACAUGUGUGUAAUUUUUUCAUGUAUUCAUUUGCAGUCUUUGUAUUUAAAAAACAUUUACUGUUAUGUUUGUAUAAUAGAACUGGAAUUCUCGGGUGCCAA; result = 0.468
Strand = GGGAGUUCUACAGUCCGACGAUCUGAAAACAGGGGCACACAGAAAUUUGAUUUGUGGCCAAAUUGGAUGAAAAAGAUGAGGCUCUAAGGAAAUGGUGGCAUGAAGACCCUCUCCCUUCUUUGUAGAAUUAAGAUGGAAUUCUCGGGUGCCAA; result = 5.9

Set 2
Target: Ras GTPase-activating protein-binding protein 1, C-terminal RGG region (G3BP1, Homo sapiens, UniProt Q13283)
Chain of UniProt Q13283 (whole entry, looked up): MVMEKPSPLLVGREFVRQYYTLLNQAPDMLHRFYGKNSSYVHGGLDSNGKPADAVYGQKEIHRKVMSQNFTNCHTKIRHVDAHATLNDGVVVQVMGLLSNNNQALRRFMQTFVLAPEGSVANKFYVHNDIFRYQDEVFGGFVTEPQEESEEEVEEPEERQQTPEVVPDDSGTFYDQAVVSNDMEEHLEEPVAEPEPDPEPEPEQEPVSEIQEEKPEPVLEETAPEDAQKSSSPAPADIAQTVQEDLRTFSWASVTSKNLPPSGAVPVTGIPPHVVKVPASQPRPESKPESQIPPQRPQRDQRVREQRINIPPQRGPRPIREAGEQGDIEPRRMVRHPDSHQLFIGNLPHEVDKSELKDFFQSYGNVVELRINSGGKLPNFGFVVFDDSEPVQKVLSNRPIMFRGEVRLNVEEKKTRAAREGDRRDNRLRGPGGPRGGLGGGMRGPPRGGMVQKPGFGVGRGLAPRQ
Method: RNA Bind-n-Seq
Molecule type: RNA
Medium: in vitro
Tested at: 1 µM
Setting: whole 134-nt RNA, ends assumed
Added: 150 mM KCl
Relative to: input library
Reading: higher = stronger binding
Quantity: log2 enrichment
Strand = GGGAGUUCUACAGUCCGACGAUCCUGUGCUACACAUCGUAUGUACCGAAUCGGGAAAAAAAGGGAAAAAAAGGGAAAAAAAGGGGAAAGUAUUAUGUUACGCCGUUCGGAUCUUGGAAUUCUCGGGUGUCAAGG; result = -1.27
Strand = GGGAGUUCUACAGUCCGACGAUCUCCUGUGCUACACAUCGUAUGUACCGAAUCGGGGUUUUUGGGUUUUUGGGGUUUUUGGGAAAGUAUUAUGUUACGCCGUUCGGAUCUGCAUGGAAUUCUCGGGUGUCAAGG; result = -0.0586
Strand = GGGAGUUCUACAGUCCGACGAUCCACAGACAACACGCACCCACACAGACACAGAGGGAAGGGGUUGGGAUGGGGACAGUGUGCACAGCAGGGCGGGGUAGGACCCCAGCCCCUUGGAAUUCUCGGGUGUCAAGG; result = -0.589
Strand = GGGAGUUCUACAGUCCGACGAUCUCCUGUGCUACACAUCGUAUGUACCGAAUCGGGGUUUUUGGGGAAAAAGGGGUUUGGGGAAAGUAUUAUGUUACGCCGUUCGGAUCUGCAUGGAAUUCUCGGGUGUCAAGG; result = 2.63
Strand = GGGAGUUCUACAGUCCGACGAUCUAACUUUAGAGGAGGAUCUGAUGGAUAUGGCAGUGGACGUGGAUUUGGGGAUGGCUAUAAUGGGUAUGGAGGAGGACCUGGAGGUUGCAAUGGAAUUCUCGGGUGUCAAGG; result = -0.905
Strand = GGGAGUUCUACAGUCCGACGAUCGUCCUGUGCUACACAUCGUAUGUACCGAAUCGGGGCCCCGGGGCCCCGGGGCCCCGGGAAAGUAUUAUGUUACGCCGUUCGGAUCUGCACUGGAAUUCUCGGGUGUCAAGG; result = -0.0252

Single results of other studies
Molecule = DDX5 (Homo sapiens, UniProt P17844); tested on = BRSK2 (Homo sapiens, UniProt Q8IWQ3); assay = cross-linking MS; system = cells; setting = added: BSPNO; quantity = cross-linked residues; result = K391 to M1
Molecule = PhoQ, residues 284 288 289 292 302 303 HSYLQF; tested on = PhoP, residues 12 14 15 18 19 LWHSL (Escherichia coli, UniProt P23836); assay = Sort-seq, refers to: YFP reporter; system = E. coli; setting = PhoQ-PhoP variant library, added: 10 µM Mg2+; scale = relative to: high Mg2+ state, higher = stronger signaling; quantity = fold induction; result = 43.1

Some of these lines once more (set 1):
Strand = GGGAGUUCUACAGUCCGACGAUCCACCUGUCAAUACUUGUUUGUAUUGAUUUCUGAUAUUCUUGCAGCUGACUACGUGUAAUUGGGCAGAUCAGCUUUGCAGUAGAUUAUGCUGCAUCCUCGUGGCAAAAUUCUGGAAUUCUCGGGUGCCAA; result = 0.312
Strand = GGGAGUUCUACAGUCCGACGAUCAUUAAGAAGUAGAAGGCACUAGCUUCAAAGAGUGAGACAUUCAGGGCCUUUUCAGCAUUGGCCCACUAGCACCAUGCAUUUAUCUGAAUUCACGGGGCCCUCUGGGCACAUGGAAUUCUCGGGUGCCAA; result = 2.07
